{"data": "Published values gathered from unrelated publications", "note": "Every numbered part comes from another study and shows a few of its results, in no order. Substitutions count along the parent as printed."}
{"data": "Block 1", "target": "CCNE2, cyclin fold, Cln2 fusion (human)", "method": "yeast growth competition, sequencing", "sample": "yeast", "notes": "strong parent motif", "relative to": "not given", "reading": "higher = stronger binding", "parent": "SCAPER docking peptide (human); SNARRSLNFGGST; partner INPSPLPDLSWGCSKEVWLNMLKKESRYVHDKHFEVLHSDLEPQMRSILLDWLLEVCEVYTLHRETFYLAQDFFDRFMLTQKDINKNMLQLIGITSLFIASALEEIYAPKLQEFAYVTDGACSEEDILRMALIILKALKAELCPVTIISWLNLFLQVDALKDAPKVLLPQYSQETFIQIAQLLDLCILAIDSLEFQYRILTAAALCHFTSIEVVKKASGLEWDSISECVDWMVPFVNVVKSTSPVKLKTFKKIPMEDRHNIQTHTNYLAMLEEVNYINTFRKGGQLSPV"}
{"Substitution": "SNARRSLNFGGSG [T13G]", "normalised enrichment score": 1.44}
{"Substitution": "SNARRHLNFGGST [S6H]", "normalised enrichment score": 2.24}
{"Substitution": "SNARRSLNFGCST [G11C]", "normalised enrichment score": 1.18}
{"Substitution": "SNERRSLNFGGST [A3E]", "normalised enrichment score": 0.629}
{"Substitution": "SNIRRSLNFGGST [A3I]", "normalised enrichment score": 1.05}
{"Substitution": "SNARRSLNQGGST [F9Q]", "normalised enrichment score": -0.0415}
{"Substitution": "SNARVSLNFGGST [R5V]", "normalised enrichment score": 0.208}
{"Substitution": "SNARRSLNHGGST [F9H]", "normalised enrichment score": -0.219}
{"Substitution": "SNARRSLNFGAST [G11A]", "normalised enrichment score": 1.35}
{"data": "Block 2", "target": "RING finger protein unkempt homolog, zinc fingers 1-6, SBP tag (UNK, Homo sapiens, UniProt Q9C0B0, residues 30-357)", "method": "RNA Bind-n-Seq", "molecule type": "RNA", "sample": "in vitro", "concentration": "100 nM", "notes": "RNA with constant flanks, vertebrate orthologous sites, ends assumed", "relative to": "input RNA pool", "reading": "higher = stronger binding", "sequence of UniProt Q9C0B0 (30-357, looked up)": "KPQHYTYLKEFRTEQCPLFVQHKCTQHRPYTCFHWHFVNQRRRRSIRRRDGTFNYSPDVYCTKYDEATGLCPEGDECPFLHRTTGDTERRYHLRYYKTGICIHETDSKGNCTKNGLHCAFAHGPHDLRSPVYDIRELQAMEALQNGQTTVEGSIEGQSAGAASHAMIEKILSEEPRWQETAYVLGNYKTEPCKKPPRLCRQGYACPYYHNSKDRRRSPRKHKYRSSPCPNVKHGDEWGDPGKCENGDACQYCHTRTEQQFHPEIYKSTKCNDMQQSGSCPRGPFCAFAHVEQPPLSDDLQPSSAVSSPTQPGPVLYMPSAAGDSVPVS"}
{"Oligonucleotide": "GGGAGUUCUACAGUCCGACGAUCCAGCCAACUCCCUUAUCGGCCGGGCUGCUCACAUCGCCGUCCUCGACUCUGAGAUCUUCCUGGAGAAGUUCUUCCUUGUUGCGGGCCUCAAGUUCUUUCAGUAGAACUGCGACAGAUUCACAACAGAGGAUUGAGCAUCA", "bound/input enrichment [ratio]": 0.477}
{"Oligonucleotide": "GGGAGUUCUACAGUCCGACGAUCGAUAUUGAAUAGUAUUAAACAUUUUCGUCUUCCUUUAUCUUUUAUCCCCUACCCAAUAUUUAGUCUACUUUUUAAAAUUUCAGACUUCACUGCUCUUUGAACUGAUAGUUCCAGUUUUCACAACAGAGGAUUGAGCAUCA", "bound/input enrichment [ratio]": 1.17}
{"Oligonucleotide": "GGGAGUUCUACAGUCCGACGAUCUAUAAGAACUCUUGCAGUCUUAGAUGUUAUAAAAAUACGUAUACCAAUUGUAAGAGUUGUUAGCACAGAUUUUUUUCUUUUCUUUUUUUUAAGCACUUGUUUUGGGUACAAGGCAUUUCUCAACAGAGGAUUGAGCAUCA", "bound/input enrichment [ratio]": 0.546}
{"Oligonucleotide": "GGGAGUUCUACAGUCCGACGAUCGUUGGUGCAGGGCGCUCUCUGUACCAGUGCCCAUCAUCCCUUCUUCAUACCAACUGUCCCUAGUUAUAGGAAUUUAAUAUUUUUAAAAGUUUUACAUUGCUGUAUAUUCAAAGAUUUGUUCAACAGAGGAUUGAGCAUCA", "bound/input enrichment [ratio]": 0.877}
{"Oligonucleotide": "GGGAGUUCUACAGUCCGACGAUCGGAUUAGGUUCGAUUCUUUGCGUGUUAAAAAAAAAAAGCAUAAAAACAUUUUUAAAAAAAUAGAAAAAUUCAGCAAACCAUUUGUAAAGUAGAAGAGGGUUUUAGGUAGAAAAGGUAUUCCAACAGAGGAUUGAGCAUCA", "bound/input enrichment [ratio]": 0.889}
{"Oligonucleotide": "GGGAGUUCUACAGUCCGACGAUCUUCUUUUUACUUCCUUAUUUACUCCUUCCUUCCUUCUUUUCUUUCAUUUUUUUUUUUUUGUAGUUGUUGUUACCCACGCCAUUUUACGUCUCCUUCACUGAAGGGCUAGAGUUUUAACUUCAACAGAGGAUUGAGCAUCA", "bound/input enrichment [ratio]": 2.68}
{"Oligonucleotide": "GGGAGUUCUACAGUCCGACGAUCCUUUUAACCAGUUAUGUCUGUAAAUGUAUAUUGAGAGAACUGAAAUAUUUAUAAACAGAGUGAUUUAUUUAAGGAAAAGCUCAUUCCUCUUUCGUAUGGUGGUCUGUGUUAAUUACAUUUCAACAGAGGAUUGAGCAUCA", "bound/input enrichment [ratio]": 0.955}
{"Oligonucleotide": "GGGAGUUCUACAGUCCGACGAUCGUGUAUGUGUGGGUUUGGGGUGGGGGGAGGGGGCAAGACAGAUGGAAUCUCUAGGGUGUAUGAUGGGUAGUAGGAAGCACAGUGCUAAGUGGGCCUCUAUGUUAAACACCUCUGGAGGUGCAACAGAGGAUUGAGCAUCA", "bound/input enrichment [ratio]": 0.392}
{"data": "Block 3", "target": "Hepatocyte nuclear factor 3-alpha (Foxa1, Mus musculus, UniProt P35582, residues 1-468, full length assumed)", "method": "EMSA with sequencing", "molecule type": "double-stranded DNA, one strand shown", "sample": "in vitro", "concentration": "10 and 20 nM", "notes": "whole designed probe, mean of two concentrations, ends assumed", "relative to": "negative control set to 0", "reading": "higher = stronger binding", "sequence of UniProt P35582 (whole entry, looked up)": "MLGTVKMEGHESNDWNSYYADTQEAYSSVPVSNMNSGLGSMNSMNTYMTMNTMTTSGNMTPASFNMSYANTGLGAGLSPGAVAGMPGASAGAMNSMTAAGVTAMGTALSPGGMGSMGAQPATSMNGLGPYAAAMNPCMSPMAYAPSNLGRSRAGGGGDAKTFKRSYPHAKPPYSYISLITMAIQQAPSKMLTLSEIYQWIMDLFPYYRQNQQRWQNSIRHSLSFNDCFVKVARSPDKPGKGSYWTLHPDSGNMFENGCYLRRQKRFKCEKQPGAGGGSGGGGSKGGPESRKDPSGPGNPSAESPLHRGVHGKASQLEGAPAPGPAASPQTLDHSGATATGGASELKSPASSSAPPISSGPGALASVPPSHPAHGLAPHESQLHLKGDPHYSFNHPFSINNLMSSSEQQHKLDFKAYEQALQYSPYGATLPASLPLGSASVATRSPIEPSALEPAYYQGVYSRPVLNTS"}
{"Oligonucleotide": "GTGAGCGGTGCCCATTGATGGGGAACATCTTCCCCCTCTTCCTTGCCCCACCAGCTCACCTTCCCGGGTTATTTGCACAAAGGAAAATAAATAAAGCCGGCATTCGTTAACGCAGTTCACGCGCATACTGCTGTTTGCTCTGGATCTAACATGGTCCTTTGGCGAGGCGTGGCTCCGGGAGAGCAAAGCACCGTGTCAGGGCCATGATCCGGGCTCGCCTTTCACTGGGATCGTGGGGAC", "normalised bound fraction [ratio]": 0.373}
{"Oligonucleotide": "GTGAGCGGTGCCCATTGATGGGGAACTCTAAAATTTGGGGGGAAATTCTTGTTTTACACTGAAGCATAGAAATGACTCACATGGTTATACATTTTTCAAGAGCAATGCCCATGAATGAGTAAACAAGGAAGCATCTTCCTTGACAGCAACATCAGGGAAAGTCAGTCTTACTGATTAGTCTAGTGCAAGAGGTCACTGTCAAATTATATGCACACTCATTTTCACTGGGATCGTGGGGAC", "normalised bound fraction [ratio]": 0.244}
{"Oligonucleotide": "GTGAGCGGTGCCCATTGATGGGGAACCTAGTTCCAGTCTTAGCATGACAATTTCTTCCTGCAACGTACTATTTTCATGCAAGAGGTCTTTTTCTTTCTTATAACTAAGAGAAAGCTAAGTAAACAAAGGGAACTTTTAGTTAGCACTCAATAGATTGATATATCATGATTTCTTCTGAAATTAAAAAATAACATCTGTATTTGTATAATGAAAGAATCCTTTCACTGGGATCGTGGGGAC", "normalised bound fraction [ratio]": 0.514}
{"Oligonucleotide": "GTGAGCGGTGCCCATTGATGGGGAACGCACTAAAAATATGTTTTTTTAAAAAATCTCCAGGGCCACTCCTAGGGTGTGCAGTGCCCTGCAAAGATAGTTTTTGTAGGGTACTTGCCTATGTAATCTACACAATTTTAGAATTCATTCCAAAACTTACAGGTCTGTGTGAGGTATAGTGATTAATGGATAGAGAAGAGATGCTTACACATTTGTTTATTGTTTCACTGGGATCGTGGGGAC", "normalised bound fraction [ratio]": 0.0467}
{"Oligonucleotide": "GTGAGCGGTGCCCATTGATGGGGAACCAGCCCACTGCCCATCCTGGCACCAGCTCAGGGACCTCCCAGAAGGCAGAGCCCTTAGGGCCCTTAGGGCCAGGACAGCACAACCTATCTGAGTAAACAGAGATCCCAGCTCTCAAGCCCTCAGGAATGGGCCTGGTGTGTTCCAGGGTCCAAAGGGTGAGGGGAAGTGGGGAGAAGGGTTCTGAGCAAACAGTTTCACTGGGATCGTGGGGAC", "normalised bound fraction [ratio]": 0.412}
{"Oligonucleotide": "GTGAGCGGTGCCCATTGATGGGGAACGCCGGTATTTACCCACAATCTCTGTTTTGGAAGTAATTAATCTTCGAATGTAGGAGCCCCTTTGTGGTGGAAAGCGCACGCTGACACTTTTGTGTAAACACCCAGCTTAGCATATTGACAAACTGGTGGCTGTTACTTTGATCCCGGGCTGCCGGCTCTGAAAAGGCAAGCCAGCTCCGGGCTGCCCCACCGGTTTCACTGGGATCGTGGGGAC", "normalised bound fraction [ratio]": 0.303}
{"Oligonucleotide": "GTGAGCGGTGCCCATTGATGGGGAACATCTTCCCCCTCTTCCTTGCCCCACCAGCTCACCTTCCCGGGTTATTTGCAGATAGGAAAATAAATAAAGCCGGCATTCGTTAACCCTCTTCTGGCGCAAACTGCTGTTTGCTCTGGTCCTTTGGCGAGATGAATCATGCGCCAGGCTCCGGGAGAGCAAAGCACCGTGTCAGGGCCATGATCCGGGGTGGCCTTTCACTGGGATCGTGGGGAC", "normalised bound fraction [ratio]": 0.385}
{"Oligonucleotide": "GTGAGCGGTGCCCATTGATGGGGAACCTTCTTAGCCCTGGTGCTATTTCTTGGCTTCCACACATTCTGTACAATTGCAGCCCTGACAGCTAATTTAGCTTCACTGTTGGTGAGTTTCTAGATTGCTTTTGCTGCTGTCCAAATGATTCAAGGTGCTGAATGACGCCATCTGTATGTTGCTAGAGGCTGAGAGGGGGCTGGGAGGAAGCCTTAAGTCAAGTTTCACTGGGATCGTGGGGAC", "normalised bound fraction [ratio]": -0.056}
{"data": "Further values, each from its own experiment"}
{"Molecule": "PhoQ, residues 284 288 289 292 302 303 QWGLFV", "target": "PhoP, residues 12 14 15 18 19 NHFRA (Escherichia coli, UniProt P23836)", "assay": "Sort-seq, measured: YFP reporter", "system": "E. coli", "setting": "PhoQ-PhoP variant library, together with: 10 µM Mg2+", "how to read": "relative to: high Mg2+ state, higher = stronger signaling", "quantity": "fold induction", "value": 1.48}
{"note": "Excerpt of the above (block 3):"}
{"Oligonucleotide": "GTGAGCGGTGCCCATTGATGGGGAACCTAGTTCCAGTCTTAGCATGACAATTTCTTCCTGCAACGTACTATTTTCATGCAAGAGGTCTTTTTCTTTCTTATAACTAAGAGAAAGCTAAGTAAACAAAGGGAACTTTTAGTTAGCACTCAATAGATTGATATATCATGATTTCTTCTGAAATTAAAAAATAACATCTGTATTTGTATAATGAAAGAATCCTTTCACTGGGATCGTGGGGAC", "normalised bound fraction [ratio]": 0.514}
{"Oligonucleotide": "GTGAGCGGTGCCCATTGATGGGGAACGCACTAAAAATATGTTTTTTTAAAAAATCTCCAGGGCCACTCCTAGGGTGTGCAGTGCCCTGCAAAGATAGTTTTTGTAGGGTACTTGCCTATGTAATCTACACAATTTTAGAATTCATTCCAAAACTTACAGGTCTGTGTGAGGTATAGTGATTAATGGATAGAGAAGAGATGCTTACACATTTGTTTATTGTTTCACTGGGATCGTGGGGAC", "normalised bound fraction [ratio]": 0.0467}
